Experimental data gathered from unrelated publications.
Protocols differ between the studies behind these lines.

For `O=C1CCC(N2Cc3cc(C(=O)O)c(F)cc3C2=O)C(=O)N1` (stereo not shown), the concentration was 3670 ng/mL (male CD-1 mouse, plasma; intravenous, 1 mg/kg, 1.02 min).
`C=CC(=O)N1CC2C(=O)N(CCN(C)C)c3c(c4cc(Cl)c(-c5c(O)cccc5F)nc4n(-c4c(C)ccnc4C(C)C)c3=O)N2CC1C` (stereo not shown) has a concentration of 153 ng/mL (mouse, plasma; oral, 30 mg/kg, 4 h).
`Cc1cc(C(=O)N[C@@H](CC(=O)NC(C)(C)C)C(=O)NCCNC(=O)c2cccc(-c3cc[nH]n3)c2)no1` gave a concentration of 49.9 ng/mL (mouse, plasma; intravenous, 0.1 mg/kg, 5 min).
`Cc1ncsc1-c1ccc(CNC(=O)[C@@H]2C[C@@H](O)CN2C(=O)[C@@H](NC(=O)COCC(C)(COCCOCCOCCNC(=O)C[C@@H]2N=C(c3ccc(Cl)cc3)c3c(sc(C)c3C)-n3c(C)nnc32)COCCOCCOCCNC(=O)C[C@@H]2N=C(c3ccc(Cl)cc3)c3c(sc(C)c3C)-n3c(C)nnc32)C(C)(C)C)cc1` has a concentration of 2970 ng/mL (male C57BL/6 mouse, plasma; intravenous, 5 mg/kg, 2 h, single dose).
For `CC(C)n1ncc2c(C(=O)NCCN(C)C)cc(C3CC3)nc21`, the concentration was 916 ng/mL (female BALB/c mouse, plasma; intraperitoneal, 50 mg/kg, 1 h).
With `CC[C@H](C)/C=C/C=C/C=C/C(O)=C/C(=O)C(F)(F)Cl` the concentration was over 1 µM (female C57BL/6 mouse, plasma; oral, 25 mg/kg, 4 h).
The concentration of `[2H]C([2H])(N)C([2H])([2H])NC(=O)c1cc(C2CC2)nc2c1cnn2C(C)C` is reported as 1600 ng/mL (female BALB/c mouse, plasma; intraperitoneal, 50 mg/kg, 2 h).
`CC(C)(O)c1ccc(N2Cc3c(ccnc3-c3ccc(F)cc3OCC(F)(F)F)C2=O)cc1` has a concentration of 2390 ng/mL (male C57BL/6 mouse, plasma; oral, 10 mg/kg, 6 h).
`COc1cccc(C2CC(c3ccccc3Cl)Nc3nc(N)nn32)c1` (stereo not shown) has a concentration of 17 µM (male CD-1 mouse, brain; intraperitoneal, 20 mg/kg, 30 min, single dose).
For `CC(C)n1ncc2c(C(=O)NC[C@@H](C)N)cc(C3CC3)nc21`, the concentration was 247 ng/mL (female BALB/c mouse, plasma; intraperitoneal, 30 mg/kg, 8 h).
